Measurements from different studies.
Each line is one published result; not all experiments were run side by side. ± marks the error that the study gave.

Amino acid sequences for entries named in this document (tags omitted).
UniProt P28223, whole entry: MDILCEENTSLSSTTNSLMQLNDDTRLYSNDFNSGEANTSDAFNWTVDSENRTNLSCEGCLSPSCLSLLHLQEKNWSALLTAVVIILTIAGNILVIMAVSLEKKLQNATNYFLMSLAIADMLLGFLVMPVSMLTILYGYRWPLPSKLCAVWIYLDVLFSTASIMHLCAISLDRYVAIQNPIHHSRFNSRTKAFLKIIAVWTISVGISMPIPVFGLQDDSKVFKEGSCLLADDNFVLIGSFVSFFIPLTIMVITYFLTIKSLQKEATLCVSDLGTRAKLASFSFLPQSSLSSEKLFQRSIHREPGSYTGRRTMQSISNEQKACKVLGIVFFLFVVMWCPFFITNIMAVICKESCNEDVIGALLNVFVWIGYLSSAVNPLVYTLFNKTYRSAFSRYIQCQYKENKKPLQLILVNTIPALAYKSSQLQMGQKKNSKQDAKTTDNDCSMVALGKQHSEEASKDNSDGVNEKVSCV

[O-][S+](CCCCOc1ccc(C(=C2C3CCCC2CCC3)c2ccc(O)cc2)cc1)CCCC(F)(F)C(F)(F)F (centres unmarked)
IC50 (MCF7 inducible ERα L536R; cell proliferation, inhibitor, MTT; 5 days): 9.7 nM

COc1ccc2c(c1)c(CC(=O)NCCCCNC(=O)CCC(=O)OC1c3cc4c(cc3C(c3cc(OC)c(OC)c(OC)c3)C3C(=O)OCC13)OCO4)c(C)n2C(=O)c1ccc(Cl)cc1 (centres unmarked)
EC50 (1483 HNSCC cells; cell number, WST-1; 48 h): 62 nM

NC[C@@H](NC[C@@H]1CCCN1C[C@@H](CO)NC[C@@H](NCCc1ccc(Cl)c(Cl)c1)c1ccccc1)c1ccccc1
potentiation of amikacin (Escherichia coli; bacterial growth; 8 µM, fold shift of IC50, added: amikacin): 0.6 fold

O=C(Nc1ccccc1OS(=O)(=O)c1ccc(OC(F)(F)F)cc1)c1cnccn1
propidium iodide positive cells (MCF7 transfected with P2X7R; cell death, antagonist, flow cytometry; 5 µM, 18 h, added: Bz-ATP; relative to: control): 35%

CC(C)C(C(=O)N(Cc1ccc(C2CCCCC2)cc1)c1ccc(C(=O)O)cc1)N(C)S(=O)(=O)c1c(F)c(F)c(F)c(F)c1F (centres unmarked)
IC50 (Pa03C spheroids, tumour alone; cell growth, Alamar blue; 12 days, 3D culture): 15200 ± 2000 nM

C[C@]12CCC3=C(C(=O)c4occ5c4[C@]3(C)[C@H]3O[C@H]3C5=O)[C@@H]1CCC2=O
sub-G1 cells (MDA-MB-231; PI flow cytometry; concentration not given, 3 h): 31.5%

[O-][S+](CCCCOc1ccc(C(=C2C3CC4CC(C3)CC2C4)c2ccc(O)cc2)cc1)CCCC(F)(F)C(F)(F)F (centres unmarked)
IC50 (MCF7 inducible ERα L536R; cell proliferation, inhibitor, MTT; 5 days): 8.8 nM

Cc1ncsc1-c1ccc([C@H](C)NC(=O)[C@@H]2C[C@@H](O)CN2C(=O)[C@@H](NC(=O)COCCOCCOCCOCCNC(=O)c2ccc(CN3CCN(S(=O)(=O)c4ccc(NC(=S)NCc5cccnc5)cc4)CC3)cc2)C(C)(C)C)cc1
NAD+ level (A2780; concentration not given, 24 h): decreased

NC[C@@H](NC[C@@H]1CCCN1C[C@@H](CO)NC[C@@H](NCCC12CC3CC(CC(C3)C1)C2)c1ccccc1)c1ccccc1
potentiation of amikacin (Escherichia coli; bacterial growth; 8 µM, fold shift of IC50, added: amikacin): 1.3 fold

C[C@@]12C3=C(C(=O)c4occ(c41)[C@@H](O)[C@@H]1O[C@@H]12)[C@@H]1CCC(O)[C@@]1(C)CC3 (some centres unmarked)
ROS level (MDA-MB-231; DCFH-DA fluorescence; concentration not given, unit not given; relative to: untreated): 1.34

NCCNCCSc1ccccc1
logP (n-octanol/phosphate buffer; 25 µg/mL, pH 7.4): -0.6 ± 0.03

CN(Cc1cn(-c2ccc(OCCCF)cc2)nn1)S(=O)(=O)c1ccc(CN2CCOCC2)cc1
inhibition (MDA-MB-231; chemotaxis, antagonist; 10 nM, 22 h, added: CXCL12 200 ng/mL): > 65%

CCCCCCCCCCCCNC(=O)N[C@H](C(=O)N[C@H]1/C=C/CCNC(=O)/C=C/[C@H](C)NC1=O)C(C)C
EC50 (Granta; cell viability, CellTiter-Glo; 24 h): 99.3 ± 4.8 nM

O=C(Cc1cccs1)NC(B(O)O)c1cccc(C(=O)O)c1 (centres unmarked)
MIC of cefotaxime (Escherichia coli DH10B expressing blaADC; agar dilution; 4 µg/mL, MIC of cefotaxime, added: cefotaxime): 1 µg/mL

O=S(=O)(NCc1[nH]nnc1CNC1CCCCC1)c1ccc(Cl)c(Cl)c1
imipenem MIC (Escherichia coli BL21 parental; inhibitor; up to 150 µM, added: imipenem): no effect

C=CC(=O)Nc1cc(-n2c(=O)ccc3cnc4ccc(-c5cn[nH]c5)cc4c32)ccc1C
GI50 (HEL; cell growth; 72 h): 1200 nM

COc1ccc(CN[C@@H]2CO[C@H](C(c3ccccc3)c3ccccc3)C[C@H]2O)cc1
inhibition (HTR2A (Homo sapiens, UniProt P28223); radioligand binding; 10 µM, added: [3H]ketanserin): 12.7%

O=C(Cc1cccs1)NCB(O)O
MIC of cefotaxime (Escherichia coli DH10B expressing blaADC; agar dilution; 4 µg/mL, MIC of cefotaxime, added: cefotaxime): 2 µg/mL

COc1ccc(C(SC[C@H](N)C(=O)NCCOCCNC(=O)c2ccc(-c3c4ccc(=N)c(S(=O)(=O)O)c-4oc4c(S(=O)(=O)O)c(N)ccc34)c(C(=O)O)c2)(c2ccccc2)c2ccccc2)cc1
EC50 (HeLa; mitotic arrest; 4 h): 5400 nM

CC(C)(c1ccc(OC[C@H](O)CO)cc1)c1ccc(OC[C@H](O)CCl)c(I)c1 (single isomer, unassigned)
IC50 (LNCaP-95; cell proliferation, BrdU incorporation; 2 d): 6890 ± 2850 nM

C[C@H](CS)C(=O)N[C@H](Cc1c[nH]c2ccccc12)C(=O)O
MIC of meropenem (Enterobacter aerogenes; VIM-1 producing; 25 µM, added: meropenem): 8 µg/mL

N#Cc1ccc2cc3c(=O)[nH]c(=O)nc-3n(-c3cccc(-c4nnn[nH]4)c3)c2c1
GI50 (DT40; cell growth, ATPlite; 72 h): > 100000 nM

Cc1ccc(C(C)C)cc1Oc1nccc(-c2c(-c3ccc(C(F)(F)F)cc3)ncn2[C@H]2CC[C@@H](N)C2)n1
mRNA level (TSEC; qPCR, refers to: CXCL1; 1.25 µM, added: LPS): decreased

A few entries again:
CC(C)(c1ccc(OC[C@H](O)CO)cc1)c1ccc(OC[C@H](O)CCl)c(I)c1 (single isomer, unassigned)
IC50 (LNCaP-95; cell proliferation, BrdU incorporation; 2 d): 6890 ± 2850 nM

C[C@H](CS)C(=O)N[C@H](Cc1c[nH]c2ccccc12)C(=O)O
MIC of meropenem (Enterobacter aerogenes; VIM-1 producing; 25 µM, added: meropenem): 8 µg/mL

N#Cc1ccc2cc3c(=O)[nH]c(=O)nc-3n(-c3cccc(-c4nnn[nH]4)c3)c2c1
GI50 (DT40; cell growth, ATPlite; 72 h): > 100000 nM
